Assay results collected from several papers.
A part holds a random share of what one study measured. Substitutions count along the parent as printed.

Set 1
Target: UBE2Z UBC core domain (UniProt Q9H832)
Technique: yeast two-hybrid
Matrix: yeast
Setting: mostly zero background
Baseline: not given
Direction: higher = stronger interaction
B1: TRIM38 RING domain (UniProt O00635); chain STKKMMEEATCSICLSLMTNPVSINCGHSYCHLCITDFFKNPSQKQLRQETFCCPQCRAPFHMDSLRP
B2: TRIM10 RING domain (UniProt Q9UDY6); chain SVTSLADEVNCPICQGTLREPVTIDCGHNFCRACLTRYCEIPGPDLEESPTCPLCKEPFRPGSFRP
B3: RNF5 RING domain (UniProt Q99942); chain ERGGAGATFECNICLETAREAVVSVCGHLYCWPCLHQWLETRPERQECPVCKAGISREKVVP
B4: TRIM52 RING domain (UniProt Q96A61); chain PMQTLQEEAVCAICLDYFKDPVSISCGHNFCRGCVTQLWSKEDEEDQNEEEDEWEEEEDEEAV
B5: RNF150 RING domain (UniProt Q9ULK6); chain DKETESDFDNCAVCIEGYKPNDVVRILPCRHLFHKSCVDPWLLDHRTCPMCKMNILKALGIP
B6: TRIM55 RING domain (UniProt Q9BYV6); chain TMDNLEKQLICPICLEMFTKPVVILPCQHNLCRKCASDIFQASNPYLPTRGGTTMASGGRFRCPSCRHEVVLDRHG
B7: RFPL2 RING domain (UniProt O75678); chain MAALFQEASSCPVCSDYLEKPMSLECGCAVCLKCINSLQKEPHGEDLLCCCSSMVSRKNKIRR
B8: NSMCE1 RING domain (UniProt Q8WV22); chain RETYPDAVKICNICHSLLIQGQSCETCGIRMHLPCVAKYFQSNAEPRCPHCNDYWPHEIPKV
B9: UBE4A RING domain (UniProt Q14139); chain LQQQEEETYADACDEFLDPIMSTLMCDPVVLPSSRVTVDRSTIARHLLSDQTDPFNRSPLTMDQIRPNTELKEKIQRWLAERKQQKEQLE
B10: RNF32 RING domain (UniProt Q9H0A6); chain SLLQGDSVQPCPICKEEFELRPQVLLSCSHVFHKACLQAFEKFTNKKTCPLCRKNQYQTRVIH
Construct (chain): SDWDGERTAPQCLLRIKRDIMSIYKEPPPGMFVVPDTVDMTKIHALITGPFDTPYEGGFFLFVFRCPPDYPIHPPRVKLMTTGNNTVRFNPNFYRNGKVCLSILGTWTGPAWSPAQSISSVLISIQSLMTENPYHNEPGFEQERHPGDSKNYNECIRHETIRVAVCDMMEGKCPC
Molecule	lacZ reporter activity
FLKKLEQSFMCVCCQELVYQPVTTECFHNVCKDCLQRSFKAQVFSCPACRHDLGQNYIMI (UHRF2 RING domain (UniProt Q96PU4))	0
B1 (TRIM38 RING domain)	0
B2 (TRIM10 RING domain)	0
B3 (RNF5 RING domain)	0
B4 (TRIM52 RING domain)	0
KRQCSDVDDICSICQAEFQKPILLICQHIFCEECMTLWFNREKTCPLCRTVISDHINKW (RNFT1 RING domain (UniProt Q5M7Z0))	2440
B5 (RNF150 RING domain)	5190
B6 (TRIM55 RING domain)	0
SYEDKSNDFVCPICFDMIEEAYMTKCGHSFCYKCIHQSLEDNNRCPKCNYVVDNIDHLY (COP1 RING domain (UniProt Q8NHY2))	0
B7 (RFPL2 RING domain)	0
B8 (NSMCE1 RING domain)	0
B9 (UBE4A RING domain)	0
ISNDSETLEECMVCSDMKRDTLFGPCGHIATCSLCSPRVKKCLICKEQVQSRTKIE (MIB1 RING domain (UniProt Q86YT6))	0
B10 (RNF32 RING domain)	0
MANWVFCNRCFQPPHRTSCFSLTNCGHVYCDACLGKGKKNECLICKAPCRTVLLSK (RNF212 RING domain (UniProt Q495C1))	0

Set 2
Target: Ras GTPase-activating protein-binding protein 1, full length (G3BP1, Homo sapiens, UniProt Q13283)
Sequence of UniProt Q13283 (whole entry, looked up): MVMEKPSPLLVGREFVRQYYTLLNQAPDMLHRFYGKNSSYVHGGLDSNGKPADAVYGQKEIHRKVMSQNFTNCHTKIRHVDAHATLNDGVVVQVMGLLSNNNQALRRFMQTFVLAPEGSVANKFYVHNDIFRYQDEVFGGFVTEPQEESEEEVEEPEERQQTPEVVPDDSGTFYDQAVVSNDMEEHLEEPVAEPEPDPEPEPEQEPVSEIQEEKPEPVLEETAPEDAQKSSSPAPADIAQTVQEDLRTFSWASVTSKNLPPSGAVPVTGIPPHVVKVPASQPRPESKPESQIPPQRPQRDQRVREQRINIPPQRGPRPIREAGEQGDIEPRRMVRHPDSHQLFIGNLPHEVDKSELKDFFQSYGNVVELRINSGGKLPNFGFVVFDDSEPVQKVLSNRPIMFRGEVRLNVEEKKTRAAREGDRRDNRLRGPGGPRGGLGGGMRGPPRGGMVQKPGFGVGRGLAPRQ
Technique: RNA Bind-n-Seq
Molecule type: RNA
Matrix: in vitro
Tested at: 200 nM
Setting: whole 134-nt RNA, ends assumed
With: 150 mM LiCl
Baseline: input library
Direction: higher = stronger binding
All molecules: 7-deaza-guanosine replaces G
Constant ends, left off below: GGGAGUUCUACAGUCCGACGAUC … UGGAAUUCUCGGGUGUCAAGG
Oligonucleotide	log2 enrichment
CCUGUGCUACACAUCGUAUGUACCGAAUCGGUUUUUUGGGGUUUUUUGGGGUUUUUUGGGAAAGUAUUAUGUUACGCCGUUCGGAUCUGC	0.584
GUCCUGUGCUACACAUCGUAUGUACCGAAUCGGGGAGGGGAAAAAAAGGGGAAAGGGGAAAGUAUUAUGUUACGCCGUUCGGAUCUGCAC	0.641
UCAAGUCCUGUGCUACACAUCGUAUGUACCGAAUCGGGAAGGGGAAGGAAGGGGAAAGUAUUAUGUUACGCCGUUCGGAUCUGCACUUCC	-0.28
UAACUUUAGAGGAGGAUCUGAUGGAUAUGGCAGUGGACGUGGAUUCGGGGAUGGCUAUAAUGGGUAUGGAGGAGGACCUGGAGGUGGCAA	-0.526
UCCCCCCUAUUGGAAGUAAAGGGGAACAUAGAACUGAAGAGACCUCUGAUUAAGGCCCCUUCCCAGCUGCCUCUCUCAGGAAGCAGACUC	0.785
CAAGUCCUGUGCUACACAUCGUAUGUACCGAAUCGGGAGGGAGGGUUUUUUUGGGAAAGUAUUAUGUUACGCCGUUCGGAUCUGCACUUC	0.128
GUCCUGUGCUACACAUCGUAUGUACCGAAUCAAAUUUAAAUUUUUUUAAACCCCCAAAAAAGUAUUAUGUUACGCCGUUCGGAUCUGCAC	-0.146
GUCCUGUGCUACACAUCGUAUGUACCGAAUCGGGGAAAGGGGAAAGGGGUUUUUGGGGAAAGUAUUAUGUUACGCCGUUCGGAUCUGCAC	0.351
UCCUGUGCUACACAUCGUAUGUACCGAAUCGGGGAAAAAAAGGGGUGGGGUUUUUGGGGAAAGUAUUAUGUUACGCCGUUCGGAUCUGCA	-1.7
GUCCUGUGCUACACAUCGUAUGUACCGAAUCGGGGAAAAAGGGGUUUUUGGGGUGGGGAAAGUAUUAUGUUACGCCGUUCGGAUCUGCAC	-0.796
UCAAGUCCUGUGCUACACAUCGUAUGUACCGAAUCGGGAGGGUGGGUUUUUGGGAAAGUAUUAUGUUACGCCGUUCGGAUCUGCACUUCC	-0.312

Set 3
Target: CCNF, cyclin fold, Cln2 fusion (human)
Technique: yeast growth competition, sequencing
Matrix: yeast
Setting: strong parent motif
Baseline: not given
Direction: higher = stronger binding
Starting sequence: SCAPER docking peptide (human); SNARRSLNFGGST
Variant	normalised enrichment score
R5Q	0.837
S6Y	7.68
T13L	7.46
F9A	0.52
G10F	6.33
S1T	7.71
A3I	7.06
S6C	7.99
A3D	0.22
R4M	3.72
G11F	7.83
S1F	8.55
G10R	4.98
N8M	7.02
N2H	7.11
L7P	0.406
S12A	8.29
N8P	2.08
S12Y	7.87
N8L	5.93
G11R	5.45
G10K	4.99
S6N	5.16
L7Q	1.54
G10C	6.1

Set 4
Target: RING finger protein unkempt homolog, zinc fingers 1-6, GST-SBP tag (UNK, Homo sapiens, UniProt Q9C0B0, residues 30-357)
Sequence of UniProt Q9C0B0 (30-357, looked up): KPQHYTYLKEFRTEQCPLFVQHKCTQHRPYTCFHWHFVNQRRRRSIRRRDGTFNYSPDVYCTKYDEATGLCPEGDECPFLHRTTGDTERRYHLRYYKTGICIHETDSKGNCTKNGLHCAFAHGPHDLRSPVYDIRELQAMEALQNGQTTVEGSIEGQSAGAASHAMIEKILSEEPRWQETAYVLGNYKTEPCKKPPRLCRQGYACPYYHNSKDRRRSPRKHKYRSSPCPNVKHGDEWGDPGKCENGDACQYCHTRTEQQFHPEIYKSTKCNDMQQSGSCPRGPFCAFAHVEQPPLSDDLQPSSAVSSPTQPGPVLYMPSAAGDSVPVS
Technique: RNA Bind-n-Seq
Molecule type: RNA
Matrix: in vitro
Tested at: not given
Setting: RNA with constant flanks, human and mouse sites, ends assumed
Baseline: input RNA pool
Direction: higher = stronger binding
Constant ends, left off below: GGGAGUUCUACAGUCCGACGAUC … CAACAGAGGAUUGAGCAUCA
Oligonucleotide	bound/input enrichment [ratio]
CAUGGUUGGUGCUGCAUGGGUUUGAUUGUCUUUGUUUGGUUAUACAAUAUUGUUUUAAUUCCCAAAAUUGUCCUCUUUCCUCACUAUGAAGAAGGACAUAUUCCAGGCAUAUUAAUAAUA	0.39
AAUUAUGUACUGCAAAAAUUUUUUUAAAUCUUCCGCCUUAAUACUUCAUUUUUGUUUUUAAUUUCUGAAUGGCCCAGGUCUGAGGCCUCCCUUUUUUUUGUCCCCCCAACUUGAUGUAUG	4.09
ACUUGGUUCAACCUGCAGGCUCGAAAACGCAAGUACUUUAAAAAGCAUGAGAAACGAAUGUCGAAGGAUGAAGAAAGGGCAGUCAAAGACGAGCUGCUCAGUGAGAAGCCCGAAAUCAAG	0.131
AGGAUCCUCCGCCUGGACCGCCUUCUGGUCCCUCGAAGCCGGCCCACGGAACCAGCGGAUCCUCAAUCUAGUCCUGUCCCGUUGCCCCCUCCUUUCUCUAUCGUCCCUACUGCGGGGUUC	0.152
CCUGGGCUUGCGCUGCUGUGCCAGCCGCAUCCAGGGCUCUCCCCGCUCUCCGCAGGCCUUUAUAGAGGCGGCCAGGGCAUGGAGCCCCUUCCAGCAAGAGCCAUGGGCACUCCGGCUCAC	0.101
AAGCUUUUGAUGUUGAAUGUUUCUAAAUAUUUAAUGGUUUCUUUAAUUUCUUAUGCUAGCAAAAAAAAAACUUCAUAGGAAUUUGUAUUACCAGUAAAAAUUUUUUUUAGGAUGUUGCAU	1.1
UAGAGUGAGGCCUGAGUACUGCCUUGGCCUAGGAUGGCUAGAGAAUUAAGUGAAAGCACAGCCCUGGAUGCCCAGUCUACAGAAGACCAGAUGGAGCUUCUGGUCAUAAAGGUGGAGGAA	1.29
AAGUGAUAGUUGAUUUGAAUCUUUAAUACGUAUGGUUCGUUAUUUCCCAGCACAGCCUGACAGUUCUGUGUGAAAAGAACGAUCCCUCCCCCCGUGACCUAAAAUACUAUGGAAAGCUCA	1.71
AUGGAGAUGUACCAGCCUAGCGCGGUGGUGCUGCAGUGUGGCGCAGACUCCCUGUCUGGGGACAGGCUUGGUUGUUUCAAUCUAACUGUCAAAGGUCAUGCUAAAUGUGUAGAAGUAGUG	0.592
CGUGUCACAUCUCAGGUAUCUAAUUUGAAGAAAAAAGAAACUACAGCAGAUUCUCAAACCACAACAUCUAAGUCAUUACAGAAUCAGUCUCUGAAAGAAAAUCAGAAGAAGCCAUUUGUG	0.173
AACGAUGUUGAAGUCAAAUGGAUUGAAUACCAGAAUAUGGUGAACUACCUCAUCCAGUGGAUUAGACACCACGUGGUCACUAUGUCCGAGAGAACAUUUCCUAACAACCCUCUAGAACUA	0.216

Some of these lines once more (set 2):
Oligonucleotide	log2 enrichment
CCUGUGCUACACAUCGUAUGUACCGAAUCGGUUUUUUGGGGUUUUUUGGGGUUUUUUGGGAAAGUAUUAUGUUACGCCGUUCGGAUCUGC	0.584
GUCCUGUGCUACACAUCGUAUGUACCGAAUCGGGGAGGGGAAAAAAAGGGGAAAGGGGAAAGUAUUAUGUUACGCCGUUCGGAUCUGCAC	0.641
UCAAGUCCUGUGCUACACAUCGUAUGUACCGAAUCGGGAAGGGGAAGGAAGGGGAAAGUAUUAUGUUACGCCGUUCGGAUCUGCACUUCC	-0.28
UAACUUUAGAGGAGGAUCUGAUGGAUAUGGCAGUGGACGUGGAUUCGGGGAUGGCUAUAAUGGGUAUGGAGGAGGACCUGGAGGUGGCAA	-0.526
UCCCCCCUAUUGGAAGUAAAGGGGAACAUAGAACUGAAGAGACCUCUGAUUAAGGCCCCUUCCCAGCUGCCUCUCUCAGGAAGCAGACUC	0.785
CAAGUCCUGUGCUACACAUCGUAUGUACCGAAUCGGGAGGGAGGGUUUUUUUGGGAAAGUAUUAUGUUACGCCGUUCGGAUCUGCACUUC	0.128
GUCCUGUGCUACACAUCGUAUGUACCGAAUCAAAUUUAAAUUUUUUUAAACCCCCAAAAAAGUAUUAUGUUACGCCGUUCGGAUCUGCAC	-0.146
GUCCUGUGCUACACAUCGUAUGUACCGAAUCGGGGAAAGGGGAAAGGGGUUUUUGGGGAAAGUAUUAUGUUACGCCGUUCGGAUCUGCAC	0.351
UCCUGUGCUACACAUCGUAUGUACCGAAUCGGGGAAAAAAAGGGGUGGGGUUUUUGGGGAAAGUAUUAUGUUACGCCGUUCGGAUCUGCA	-1.7
GUCCUGUGCUACACAUCGUAUGUACCGAAUCGGGGAAAAAGGGGUUUUUGGGGUGGGGAAAGUAUUAUGUUACGCCGUUCGGAUCUGCAC	-0.796
